Experimental data gathered from unrelated publications.
Protocols differ between the studies behind these lines. Numbers after ± are the reported error. ≈ marks a conversion by molar mass, not a printed value.
rep main protease: Replicase polyprotein 1ab, main protease (rep, Severe acute respiratory syndrome coronavirus 2, UniProt P0DTD1)
Chain of UniProt Q12809 (whole entry, looked up): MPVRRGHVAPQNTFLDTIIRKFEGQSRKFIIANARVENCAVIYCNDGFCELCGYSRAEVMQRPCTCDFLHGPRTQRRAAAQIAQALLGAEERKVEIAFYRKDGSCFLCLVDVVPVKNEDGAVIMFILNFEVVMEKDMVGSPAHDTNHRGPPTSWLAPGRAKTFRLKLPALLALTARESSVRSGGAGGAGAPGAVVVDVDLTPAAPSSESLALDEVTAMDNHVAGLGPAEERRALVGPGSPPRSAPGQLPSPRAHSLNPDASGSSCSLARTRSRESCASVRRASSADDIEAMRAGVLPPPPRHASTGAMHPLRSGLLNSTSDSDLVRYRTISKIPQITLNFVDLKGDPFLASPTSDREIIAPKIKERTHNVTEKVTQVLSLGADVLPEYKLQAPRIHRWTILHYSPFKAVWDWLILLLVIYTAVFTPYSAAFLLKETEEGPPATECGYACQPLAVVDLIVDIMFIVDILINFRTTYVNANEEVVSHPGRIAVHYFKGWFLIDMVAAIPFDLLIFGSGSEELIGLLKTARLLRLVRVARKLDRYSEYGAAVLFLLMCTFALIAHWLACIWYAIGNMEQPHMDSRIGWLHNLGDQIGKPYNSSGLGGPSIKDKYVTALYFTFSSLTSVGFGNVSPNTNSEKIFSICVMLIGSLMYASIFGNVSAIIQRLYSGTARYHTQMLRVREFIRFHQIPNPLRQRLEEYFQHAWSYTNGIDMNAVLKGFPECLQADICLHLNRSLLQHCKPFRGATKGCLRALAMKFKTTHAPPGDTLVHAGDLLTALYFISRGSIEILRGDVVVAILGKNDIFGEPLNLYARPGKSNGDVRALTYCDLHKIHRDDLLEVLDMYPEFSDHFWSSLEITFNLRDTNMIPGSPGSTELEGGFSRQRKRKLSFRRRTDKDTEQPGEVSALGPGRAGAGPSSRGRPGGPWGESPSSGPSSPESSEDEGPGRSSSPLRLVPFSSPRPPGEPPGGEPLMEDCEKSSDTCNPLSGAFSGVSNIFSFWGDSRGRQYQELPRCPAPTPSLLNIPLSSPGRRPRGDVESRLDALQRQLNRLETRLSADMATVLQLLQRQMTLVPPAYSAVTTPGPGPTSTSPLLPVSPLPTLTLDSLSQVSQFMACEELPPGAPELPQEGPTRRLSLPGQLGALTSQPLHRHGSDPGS
Chain of UniProt P08684 (whole entry, looked up): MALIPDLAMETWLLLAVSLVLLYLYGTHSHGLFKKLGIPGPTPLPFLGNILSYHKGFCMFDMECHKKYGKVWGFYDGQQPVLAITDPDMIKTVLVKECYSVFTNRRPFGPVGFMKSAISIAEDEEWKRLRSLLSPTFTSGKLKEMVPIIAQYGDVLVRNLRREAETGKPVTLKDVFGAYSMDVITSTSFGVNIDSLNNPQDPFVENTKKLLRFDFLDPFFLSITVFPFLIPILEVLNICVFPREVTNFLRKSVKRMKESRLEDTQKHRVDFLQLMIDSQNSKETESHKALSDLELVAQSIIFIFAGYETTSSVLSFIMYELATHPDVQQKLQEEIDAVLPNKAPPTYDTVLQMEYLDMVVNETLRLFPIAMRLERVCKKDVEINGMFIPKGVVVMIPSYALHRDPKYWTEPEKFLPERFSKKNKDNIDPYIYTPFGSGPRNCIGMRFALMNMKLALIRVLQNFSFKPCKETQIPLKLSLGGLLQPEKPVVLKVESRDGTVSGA

Structure (SMILES)	target or system	assay	test system	setting	how to read	endpoint	value
Cc1ccc2nc(C3CCCN(Cc4cccc(-c5cccnc5)c4)C3)[nH]c(=O)c2c1 (stereo not drawn)	SARS-CoV-2	cytopathic effect	USA_WA1/2020	retest, 8-point, duplicates		maximum response	69.7%
COc1ccc(C[C@@H]2c3cc(Oc4cc(C[C@@H]5c6cc(O)c(OC)cc6CCN5C)ccc4O)c(OC)cc3CCN2C)cc1	SARS-CoV-2	viral replication	Vero E6	6.25 µM	baseline: mean of replicates	CPE inhibition	0%
Cc1csc(SCC(=O)NC2CCCc3c2cnn3-c2cccc(C)c2C)n1 (stereo not drawn)	Lassa mammarenavirus	viral replication	Huh-7	10 µM, 72 h		remaining activity	44%
CC(C)(C)c1cc(C(C)(C)C)c(NC(=O)c2c[nH]c3ccccc3c2=O)cc1O	SARS-CoV-2	viral replication, GFP plate reader screen		cell-based		EC50	4.57 µM
Cn1c(=O)ccc2ccc(F)c(CCNC[C@H]3CN(c4cnc5c(n4)NC(=O)CO5)C(=O)O3)c21	Burkholderia pseudomallei	microbial growth				MIC50	0.25 µg/mL (≈ 0.534 µM)
CC(C)(C)[C@H](NC(=O)C(F)(F)F)C(=O)N1C[C@H]2[C@@H]([C@H]1C(=O)N[C@H](C#N)C[C@@H]1CCNC1=O)C2(C)C			human, fasted	oral, 1500 mg single dose, no ritonavir		AUC(0-t)	10900 ng·h/mL
CC(=O)c1ccc2c(c1)N(CCCN1CCN(CCO)CC1)c1ccccc1S2	SARS-CoV-2	viral replication, high-content imaging screen		cell-based		EC50	> 100 µM
O=C(Nc1ncc(Cc2cccc3ccccc23)s1)C1CCCCC1	Histoplasma capsulatum	microbial growth				MIC	0.6 to 1.3 µM (≈ 0.21 to 0.456 µg/mL)
Cc1cnc(C(=O)N2CCCC(C(=O)Nc3ccc(-c4cccc(F)c4)cc3)C2)cn1 (stereo not drawn)	Lassa mammarenavirus	viral replication	Huh-7	10 µM, 72 h		remaining activity	39%
COP(=S)(OC)Oc1ccc([N+](=O)[O-])c(C)c1	rat CYP2D	bufuralol 1'-hydroxylation, non-competitive inhibitor	rat Sprague-Dawley, liver microsomes	10 min, pH 7.4, added: bufuralol 4 to 134 µM		Ki	290 ± 45.8 µM
Nc1ncc(Cc2ccccc2)s1	Histoplasma capsulatum	microbial growth				MIC	> 20 µM
CCN(CC)CCNC(=O)c1cc(-c2ccc(Br)s2)nc2ccccc12	SARS-CoV-2	cytopathic effect, cell-based CPE	USA_WA1/2020			AC50	7.94 µM
COc1ccc2c(c1)c(CC(=O)O)c(C)n2C(=O)c1ccc(Cl)cc1	SARS-CoV-2	viral replication, GFP plate reader screen		cell-based		EC50	> 100 µM
O=c1ccn([C@@H]2O[C@](F)(CO)[C@@H](O)[C@H]2O)c(=O)[nH]1	Andes virus			concentration not given		viral replication	inhibited
Cn1cnc(Cn2c(=O)[nH]/c(=N\c3cc4cn(C)nc4cc3Cl)n(Cc3cc(F)c(F)cc3F)c2=O)n1	Cytochrome P450 3A4 (CYP3A4, Homo sapiens, UniProt P08684)	inhibitor	human liver microsomes	0 min preincubation, added: testosterone 60 µM		IC50	> 100 µM
CCCCN(CCCC)CCCNC(=O)c1cc(-c2ccc(Cl)s2)nc2ccccc12	SARS-CoV-2	cytopathic effect	USA_WA1/2020	round 2, 5-point		maximum response	72.5%
CNC(=O)[C@@H](NC(=O)[C@H](CC(C)C)[C@H](O)C(=O)NO)C(C)(C)C	Daboia russelii		C2C12	100 µM, added: Daboia russelii venom GA	baseline: venom alone	viability difference	-23.3%
CC[C@H](C)[C@H](NC(=O)[C@H](CC(C)C)NC(=O)[C@H](CO)NC(=O)[C@H](Cc1c[nH]cn1)NC(=O)[C@@H](NC(=O)[C@H](CC(C)C)NC(=O)[C@H](CO)NC(=O)[C@@H](NC(=O)[C@H](Cc1ccc(O)cc1)NC(=O)[C@H](CC(N)=O)NC(=O)[C@H](CC(N)=O)NC(=O)[C@@H](NC(=O)[C@H](CCC(=O)O)NC(=O)[C@H](CCCNC(=N)N)NC(=O)[C@H](CC(=O)O)NC(=O)[C@H](Cc1c[nH]c2ccccc12)NC(=O)[C@H](CCC(=O)O)NC(=O)[C@H](CCSC)NC(=O)[C@H](Cc1c[nH]c2ccccc12)NC(C)=O)[C@@H](C)CC)[C@@H](C)O)[C@@H](C)CC)C(=O)N[C@@H](CCC(=O)O)C(=O)N[C@@H](CCC(=O)O)C(=O)N[C@@H](CO)C(=O)N[C@@H](CCC(N)=O)C(=O)N[C@@H](CC(N)=O)C(=O)N[C@@H](CCC(N)=O)C(=O)N[C@@H](CCC(N)=O)C(=O)N[C@@H](CCC(=O)O)C(=O)N[C@@H](CCCCN)C(=O)N[C@@H](CC(N)=O)C(=O)N[C@@H](CCC(=O)O)C(=O)N[C@@H](CCC(N)=O)C(=O)N[C@@H](CCC(=O)O)C(=O)N[C@@H](CC(C)C)C(=O)N[C@@H](CC(C)C)C(=O)NCC(=O)N[C@@H](CO)C(=O)NCC(=O)N[C@@H](CSCC(=O)O[C@H]1CC[C@@]2(C)C(=CC[C@H]3[C@@H]4CC[C@H]([C@H](C)CCCC(C)(C)O)[C@@]4(C)CC[C@@H]32)C1)C(N)=O		membrane binding, di-8-ANEPPS dipole potential	POPC:cholesterol LUVs	ratio 2:1		Kd	14.3 ± 8.2 µM
O=C(/C=C/c1ccc(O)c(O)c1/C=C/c1ccc(O)c(O)c1)O[C@H](Cc1ccc(O)c(O)c1)C(=O)O	SARS-CoV-2	cytopathic effect	Vero E6	0.7812 µM, replicate run		mean inhibition	0%
Nc1ncnc2c([C@@H]3N[C@H](CO)[C@@H](O)[C@H]3O)c[nH]c12	Marburg marburgvirus	virus production	HeLa, Musoke	25 µM		inhibition	100%
CCOC(=O)c1ccc(OC(=O)CCCCCN=C(N)N)cc1.CS(=O)(=O)O	rep main protease	reporter gene (mKate2), inhibitor		20 µM		inhibition	-0.479%
Cn1cnc(Cn2c(=O)[nH]/c(=N\c3cc4cn(C)nc4cc3Cl)n(Cc3cc(F)c(F)cc3F)c2=O)n1			human, moderate renal impairment	oral, 375 mg		treatment-related TEAE, Mild severity	0%
Cc1cc(F)cc(C(=O)N2CC(=O)N[C@@H](CC(C)C)c3nc(cs3)C(=O)N[C@@H](Cc3ccccc3)c3nc(C)nn3CC(=O)N[C@@H](C(C)C)C2)c1	Lassa mammarenavirus	viral replication	Huh-7	10 µM, 72 h		remaining activity	83%
COC(=O)C1=C(C)NC(C)=C(C(=O)OC2CCCN(Cc3ccccc3)C2)C1c1cccc([N+](=O)[O-])c1 (stereo not drawn)	SARS-CoV-2	viral replication, GFP plate reader screen		cell-based		EC50	> 100 µM

Structure (SMILES)	target or system	assay	test system	setting	how to read	endpoint	value
Cc1nc(N(C)Cc2cc(-c3ccccc3)on2)c2cccnc2n1	Lassa mammarenavirus	viral replication	Huh-7	10 µM, 72 h		remaining activity	51%
CCN(CC)CCNC(=O)c1ccc(NS(C)(=O)=O)cc1	SARS-CoV-2	viral replication, high-content imaging screen		cell-based		EC50	> 100 µM
Cc1ccc(N2CCC(NC(C)Cc3ncccc3C)CC2)cc1 (stereo not drawn)	Lassa mammarenavirus	viral replication	Huh-7	10 µM, 72 h		remaining activity	32%
Cc1cc(C)cc(-c2ccc(CN3CCCC3C(=O)NCc3cccc(F)c3)cc2)c1 (stereo not drawn)	SARS-CoV-2	cytopathic effect	USA_WA1/2020	retest, 8-point, duplicates		maximum response	18.1%
OCCOCCN1CCN(C(c2ccccc2)c2ccc(Cl)cc2)CC1 (stereo not drawn)	Marburg virus	pseudovirus entry	A549		baseline: CC50 over IC50	selectivity index	12
O=C(Cc1cccnc1)N1CCC(c2cc(Cc3ccccc3)n[nH]2)CC1	Lassa mammarenavirus	viral replication	Huh-7	10 µM, 72 h		remaining activity	35%
Cc1cc(O[C@@H](CCC(F)(F)F)c2ccc(C(=O)NCCC(=O)O)cc2)cc(C)c1-c1ccc(C(C)(C)C)cc1	SARS-CoV-2	viral replication, high-content imaging screen		cell-based		EC50	> 6.31 µM
COc1ccccc1C(=O)NC1CCCN(Cc2cccc(-c3ccc(C)c(Cl)c3)c2)C1 (stereo not drawn)	SARS-CoV-2	cytopathic effect	USA_WA1/2020	retest, 8-point, duplicates		maximum response	41.8%
O=[N+]([O-])c1ccc(C2=[N+]([O-])c3ccccc3N3CCN=C23)cc1	Clostridium perfringens					MIC90	0.125 µg/mL (≈ 0.405 µM)
CC(=O)c1c(O)c(C)c(O)c(Cc2c(O)c3c(c(C(=O)/C=C/c4ccccc4)c2O)OC(C)(C)C=C3)c1O	KCNH2 (Homo sapiens, UniProt Q12809)	ion current, whole-cell patch clamp	HEK293 expressing hERG1	15 µM, at -120 mV		slow deactivation time constant	235 ± 15 ms
O=C(Nc1ccc(N2CCN(C(=O)c3cnccn3)CC2)nc1)c1c(Cl)cccc1Br	Mycobacterium tuberculosis	bacterial growth	H37Ra-lux	168 h		IC90	3.82 µM
CC[C@H](C)[C@H](NC(=O)[C@H](CC(C)C)NC(=O)[C@H](Cc1c[nH]c2ccccc12)NC(=O)[C@H](CCC(N)=O)NC(=O)[C@@H](NC(=O)[C@H](Cc1ccccc1)NC(=O)[C@H](C)NC(=O)[C@H](CCCCNC(=O)COCCOCCNC(=O)COCCOCCNC(=O)CC[C@H](NC(=O)CCCCCCCCCCCCCCCCCCC(=O)O)C(=O)O)NC(=O)[C@H](CCC(N)=O)NC(=O)[C@H](C)NC(=O)[C@@H](NC(=O)[C@H](CCCCN)NC(=O)[C@H](CC(=O)O)NC(=O)[C@H](CC(C)C)NC(=O)C(C)(C)NC(=O)[C@@H](NC(=O)[C@H](CO)NC(=O)[C@H](Cc1ccc(O)cc1)NC(=O)[C@H](CC(=O)O)NC(=O)[C@H](CO)NC(=O)[C@@H](NC(=O)[C@H](Cc1ccccc1)NC(=O)[C@@H](NC(=O)CNC(=O)[C@H](CCC(=O)O)NC(=O)C(C)(C)NC(=O)[C@@H](N)Cc1ccc(O)cc1)[C@@H](C)O)[C@@H](C)O)[C@@H](C)CC)[C@@H](C)CC)C(C)C)C(=O)N[C@@H](C)C(=O)NCC(=O)NCC(=O)N1CCC[C@H]1C(=O)N[C@@H](CO)C(=O)N[C@@H](CO)C(=O)NCC(=O)N[C@@H](C)C(=O)N1CCC[C@H]1C(=O)N1CCC[C@H]1C(=O)N1CCC[C@H]1C(=O)N[C@@H](CO)C(N)=O			human, moderate renal impairment, plasma	subcutaneous, 5 mg single dose, median		Tmax	60 h
O=C(NCc1ccccc1Cl)C1CCCN(Cc2cccc(-c3ccc(F)cc3F)c2)C1 (stereo not drawn)	SARS-CoV-2	cytopathic effect	USA_WA1/2020	round 1, 5-point		maximum response	47.4%
Cc1ccnc(OC2CCOC3(CCN(C(=O)C4(c5ccccc5)CCCC4)CC3)C2)c1 (stereo not drawn)	Venezuelan equine encephalitis virus	viral replication				EC50	20 µM
CC[C@H](C)[C@H](NC(=O)[C@H](CC(C)C)NC(=O)[C@H](Cc1c[nH]c2ccccc12)NC(=O)[C@H](CCC(N)=O)NC(=O)[C@@H](NC(=O)[C@H](Cc1ccccc1)NC(=O)[C@H](C)NC(=O)[C@H](CCCCNC(=O)COCCOCCNC(=O)COCCOCCNC(=O)CC[C@H](NC(=O)CCCCCCCCCCCCCCCCCCC(=O)O)C(=O)O)NC(=O)[C@H](CCC(N)=O)NC(=O)[C@H](C)NC(=O)[C@@H](NC(=O)[C@H](CCCCN)NC(=O)[C@H](CC(=O)O)NC(=O)[C@H](CC(C)C)NC(=O)C(C)(C)NC(=O)[C@@H](NC(=O)[C@H](CO)NC(=O)[C@H](Cc1ccc(O)cc1)NC(=O)[C@H](CC(=O)O)NC(=O)[C@H](CO)NC(=O)[C@@H](NC(=O)[C@H](Cc1ccccc1)NC(=O)[C@@H](NC(=O)CNC(=O)[C@H](CCC(=O)O)NC(=O)C(C)(C)NC(=O)[C@@H](N)Cc1ccc(O)cc1)[C@@H](C)O)[C@@H](C)O)[C@@H](C)CC)[C@@H](C)CC)C(C)C)C(=O)N[C@@H](C)C(=O)NCC(=O)NCC(=O)N1CCC[C@H]1C(=O)N[C@@H](CO)C(=O)N[C@@H](CO)C(=O)NCC(=O)N[C@@H](C)C(=O)N1CCC[C@H]1C(=O)N1CCC[C@H]1C(=O)N1CCC[C@H]1C(=O)N[C@@H](CO)C(N)=O			healthy subjects, single ascending dose	8.0 mg, titre increase ≥4-fold		treatment-boosted ADA positive subjects	0%
COc1ccc(Nc2cc(C(=O)NCCCN3CCN(c4ccc(OC)cc4)CC3)c3ccccc3n2)cc1	SARS-CoV-2	cytopathic effect	USA_WA1/2020	round 2, 5-point		efficacy	46.8%
CC(C)(F)C[C@H](N[C@@H](c1ccc(-c2ccc(S(C)(=O)=O)cc2)cc1)C(F)(F)F)C(=O)NC1(C#N)CC1	rep main protease	reporter gene (mKate2), inhibitor		20 µM		inhibition	-0.81%
O=C(c1cnn[nH]1)N1CCC(n2c(=O)[nH]c3ccccc32)CC1	Lassa mammarenavirus	viral replication	Huh-7	10 µM, 72 h		remaining activity	43%
CN1CCCC2(C1)CN(Cc1cccnc1)c1ccc(C(=O)NCC3CCCCC3)cc12 (stereo not drawn)	SARS-CoV-2	cytopathic effect	USA_WA1/2020	round 2, 5-point		maximum response	91.7%
Nc1ncnc2c1ncn2[C@@H]1O[C@@H]2COP(=O)(O)O[C@H]3[C@@H](O)[C@H](n4cnc5c(=O)[nH]cnc54)O[C@@H]3COP(=O)(O)O[C@H]2[C@H]1O	Chikungunya virus	upregulated Reactome pathway, RNA sequencing, measured: Gene expression (Transcription) (R-HSA-74160)	HFF-1		baseline: CHIKV-infected untreated	fold enrichment	1.84
C[C@H]1[C@H]2CC[C@H]3[C@@H]4CC=C5C[C@@H](N(C)C)CC[C@]5(C)[C@H]4CC[C@]23CN1C	SARS-CoV-2	viral replication, GFP plate reader screen		cell-based		EC50	12 µM
CCc1c(C(=O)C(N)=O)c2c(OCC(=O)O)cccc2n1Cc1ccccc1	Daboia russelii		mouse	intravenous, 120 µg, up to 24 h, given 0 min after venom, added: northern venom intraperitoneal		time of death	> 24 h
CC[C@@H]1C(=O)N(C)c2cnc(Nc3ccc(C(=O)N[C@H]4CC[C@H](N5CCN(CC6CC6)CC5)CC4)cc3OC)nc2N1C(C)C	SARS-CoV-2	viral replication, high-content imaging screen		cell-based		EC50	> 50.1 µM
Cc1cc(/C=C/c2ccccc2)cnc1N	Lassa mammarenavirus	viral replication	Huh-7	10 µM, 72 h		remaining activity	45%
